Assay results from different studies.
Each numbered part is a random draw from the data of one study; scales do not carry over between parts. Substitutions count along the parent as printed.

Sample 1
Target: Sal-like protein 4, full length isoform B (SALL4, Homo sapiens, UniProt Q9UJQ4-2, residues 1-616)
Technique: universal PBM
Molecule type: double-stranded DNA, one strand shown
Sample: in vitro
Concentration: not given
Notes: 8-mer, flanks averaged, mean of replicates
Direction: higher = stronger binding
Measurement: E-score
GGTGCCGA: -0.291
CATGGTCG: -0.126
AATATGGT: 0.271
CGATTGAC: 0.0167
GCGTGACC: -0.264
CTCGTCTA: 0.0229
AGTCGTGC: -0.312
GGACTCGA: -0.113
TTAGGAAA: 0.172
AGTCAGGG: -0.209
GGGCTCCA: -0.285
AAATAGTT: 0.229
CCGGTTCC: -0.402
GCACATGA: 0.096
ACGGCTTG: -0.214
AACATTTG: 0.144
AACCTTCG: 0.0325
GGTCTGTA: -0.134
ACCGATCG: -0.142
AGTCCTAC: -0.0681

Sample 2
Target: Interferon regulatory factor 7, full length, phosphomimetic (IRF7, Homo sapiens, UniProt Q92985, residues 1-503, S471D/S472D/S475D/S476D/S477D/S483D/S484D/S487D)
Technique: protein-binding microarray
Molecule type: double-stranded DNA, one strand shown
Sample: in vitro
Concentration: 2200 nM top
Notes: 60-bp whole probe
Together with: salmon DNA 0.4 mg/ml
Baseline: random background probes
Direction: higher = stronger binding
Measurement: fitted relative affinity
Constant ends, left off below: GCCTAGCAC … GTCTTGATTCGCTTGACGCTGCTG
Residues (chain): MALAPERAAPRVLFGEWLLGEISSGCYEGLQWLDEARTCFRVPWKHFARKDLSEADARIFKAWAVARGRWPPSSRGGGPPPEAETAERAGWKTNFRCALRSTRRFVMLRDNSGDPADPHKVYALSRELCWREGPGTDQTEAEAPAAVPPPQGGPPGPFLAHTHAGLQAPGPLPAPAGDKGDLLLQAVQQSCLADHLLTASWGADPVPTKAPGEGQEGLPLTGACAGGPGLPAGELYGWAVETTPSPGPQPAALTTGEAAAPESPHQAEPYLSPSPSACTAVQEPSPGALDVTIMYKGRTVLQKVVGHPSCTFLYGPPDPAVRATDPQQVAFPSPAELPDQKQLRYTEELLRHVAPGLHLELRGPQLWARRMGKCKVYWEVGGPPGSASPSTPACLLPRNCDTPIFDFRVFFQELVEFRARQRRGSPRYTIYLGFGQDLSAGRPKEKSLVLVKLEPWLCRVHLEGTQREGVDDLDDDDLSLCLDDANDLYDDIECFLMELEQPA
TTAGATTTCGAGTATCGATTAGTGCTA: 1.38 z-score
TCAAACATCATTGTCATACTGTGCTAG: 0.258 z-score
CACGAACTGAGACTGGAGACGTGCTAG: -0.24 z-score
TCAGATCTCAGACTGTGACTGTGCTAG: 0.148 z-score
GACGGTCTCGGTATCGGGACGTGCTAG: 0.025 z-score
AAATATATACAAACTAAGGATGTGCTA: -0.812 z-score
TCAGGTAGCCTTATCCCTAAGTGCTAG: 0.0789 z-score
TCAGCCCTCGGTTTACAACTGTGCTAG: 2.5 z-score
TTAGTTATCGACTATCGGTTAGTGCTA: 0.827 z-score
TCAGAACTCAACTGTCTGACTGTGCTA: 0.158 z-score
TTAGGTTTCGGGACTGGGTTGGTGCTA: 3.28 z-score
TCAGTTTTCTCCATGGAACTGTGCTAG: 1.66 z-score
GACGGACTGGAGTTTCGGGACGTGCTA: 1.27 z-score
GACGATCGCAGTATCGAGACGTGCTAG: -0.196 z-score
TTAGGACTGCTTTTCTTTTAGTGCTAG: 1.4 z-score
TTAGGTATCGGGCATCGGTTAGTGCTA: -0.15 z-score
GACGGTCTCGTTCTCGGGACGTGCTAG: 0.347 z-score
GACGCACTGGGACTGGGGACGTGCTAG: -0.538 z-score
GACGAACTGGGGATTCGAGACGTGCTA: 0.153 z-score

Sample 3
Target: CCNB3, cyclin fold, Cln2 fusion (human)
Technique: yeast growth competition, sequencing
Sample: yeast
Notes: weak parent motif
Baseline: not given
Direction: higher = stronger binding
Measurement: normalised enrichment score
Parent: INSM1 docking peptide (human); PKAIRKLHFEDEV
K2I: 0.353
A3K: 0.269
K6M: 0.432
K6V: 0.493
L7K: -0.0572
L7W: -0.201
F9D: -0.17
K2G: 0.379
H8Q: 0.44
K6E: 0.0589
I4G: -0.149

Sample 4
Target: TAR DNA-binding protein 43, full length, His tag (TARDBP, Homo sapiens, UniProt Q13148, residues 1-414)
Technique: RNA Bind-n-Seq
Molecule type: RNA
Sample: in vitro
Concentration: 20 nM
Notes: 6-mer, flanks averaged, single round
Together with: 150 mM KCl
Baseline: input library
Direction: higher = stronger binding
Measurement: 6-mer enrichment (R)
UGAAUA: 0.688
CACUCU: 0.574
CUGGCC: 0.806
AUUGGU: 0.756
CUCACU: 0.559
UUGAAU: 0.742
GGUAAG: 1.82
UGGUCC: 0.77
GUUCAU: 0.595
CCUGCG: 0.897
UGUGAA: 1.06
CAGCCC: 0.669
UUUGCC: 0.668
AGGAAA: 0.902
AGGCAA: 0.889
AAUGGC: 0.851
ACAGUG: 0.958

Sample 5
Target: RNA binding protein fox-1 homolog 2, RRM domain, GST-SBP tag (RBFOX2, Homo sapiens, UniProt O43251-10, residues 100-194)
Technique: RNA Bind-n-Seq
Molecule type: RNA
Sample: in vitro
Concentration: 365 nM
Notes: natural RNA segment, single round, ends assumed
Baseline: no-protein control
Direction: higher = stronger binding
Measurement: RBNS enrichment (R)
Constant ends, left off below: GGGAGUUCUACAGUCCGACGAUC … UGGAAUUCUCGGGUGCCAA
Construct (chain): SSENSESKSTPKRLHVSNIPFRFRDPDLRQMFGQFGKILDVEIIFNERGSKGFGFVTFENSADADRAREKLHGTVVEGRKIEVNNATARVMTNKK
AGUGCAGGGUCUGUGCACCUUCCCUGCUGGCCUGCACACAGCUGCUCAGCACCACUUUCAUUCUGGACCUGGGACCUUAGGAGCCGGGUGACAGCACUAACCAGACCUCC: 0.533
GAAUUAUGGAACAUUGUCUGUACCUUCUGACUUUAUGUAAGCAGUCCAUUCCAUUGCUUGUUUCUCAAAGCAGCGAGAUACCUGUCUGAGCUGCAGGAGGCAGGGGCAGC: 0.441
GCCACCCAGUGGAAGGACACUCUUGGCUCGUUUGGGCUCAAGGCACCGCAGCCUGUCAGCCAACAUUGCCUUGCAUUUGUACCUUAUUGAUCUUUGCCCAUGGAAGUCUC: 0.39
GACAUCCGCCAGGCUUCCCCUCAGCAGCAGGAGCCCAGGUCACCCUGGUUAAACUGCAGUGAUACAUUUAGGUGGGUGGGGUCAAGGCAUAUGUGGCCUCCGGGAGACAC: 0.377
AAUAUAGGAAGCAUAUGCCUACUUGUAAUUUCUAACUCCUUAUGUUUGAAGAGAAACCUCCGGUGUGAGAUAUACAAAUAUAUUUAAUUGUGUCAUAUUAAACUUCUGAU: 0.636
CCUGUGAUUUAAAGUUUUACAAAAAGCAGAGCUUUUUCCUAAGUUACUUUUCAGUUAGGUAACUGUGUGAUCCAGUUCUUCCAGCUGCUUCUAUAAUGAGGCACAUAUUA: 0.424
UUAUAUCUAAUUUGUACCCUUGUUGAAAUUGUCAUUUAUACAAUAAAGCGAAUUCUUUAUCUCUAAAUAUGAUGAAGUUUUCUUAACAUGAUAAUUUUUAGUUAAAAUCU: 0.695
GUAAUUCUUUUGUACAUUGAAAUGAGGGGCUUGGUUUAAAAAAAGACCUUUCCCUCUCCCUGCCCCUAGAACAACCAGUAUUAGAAGGUGCCACCAUUGGUGCUGCCUUC: 0.257

Sample 6
Target: Histone acetyltransferase KAT6A, both winged helices, GST fusion (KAT6A, Homo sapiens, UniProt Q92794, residues 1-181)
Technique: protein binding microarray
Molecule type: double-stranded DNA, one strand shown
Sample: in vitro
Concentration: not given
Notes: 8-mer, flanks averaged, mean of 2 arrays, mostly near background
Baseline: not given
Direction: higher = stronger binding
Measurement: E-score
Construct (chain): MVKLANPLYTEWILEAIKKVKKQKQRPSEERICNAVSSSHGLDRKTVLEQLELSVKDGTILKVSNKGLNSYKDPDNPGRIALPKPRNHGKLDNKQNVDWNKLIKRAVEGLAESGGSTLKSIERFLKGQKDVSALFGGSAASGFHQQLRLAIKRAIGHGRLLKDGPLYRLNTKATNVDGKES
GCTTAGTA: 0.091
ATACCCAA: -0.0783
ACCTCGCA: -0.0384
CATGCTAG: -0.153
CACCGACC: 0.13
GCCATGAA: -0.0932
CAGCACTA: 0.0196
CTCTCGCA: -0.0961
GGGTGAAC: 0.0309
GCGCACCA: 0.175
GAACCGCC: 0.166
CGAGGCAG: -0.0375
AACCCTCC: -0.0973
CCGCTACA: 0.182
ACCCCGTG: 0.196
GCTACTCC: -0.0198
AATTGACC: -0.0421
GAGGACAA: -0.129
CTTCAGAA: -0.019
AATTTTTG: -0.191
AGCGAGTG: 0.0323
ATTTCGAA: 0.0132
GATCAAAA: -0.0674
GATGGCAC: -0.07
CGTGCGAG: 0.159

For quick reference, copied from above (sample 6):
AACCCTCC: -0.0973
CCGCTACA: 0.182
ACCCCGTG: 0.196
GCTACTCC: -0.0198
AATTGACC: -0.0421
GAGGACAA: -0.129
CTTCAGAA: -0.019
AATTTTTG: -0.191
AGCGAGTG: 0.0323
ATTTCGAA: 0.0132
GATCAAAA: -0.0674
GATGGCAC: -0.07
CGTGCGAG: 0.159
